Assay results of several laboratories.
± marks the error that the study gave.

| SMILES | assay | system | setting | tissue uptake |
| --- | --- | --- | --- | --- |
| CCCC[C@H](NC(=O)CNC(=O)CNC(=O)CN1CCN(CC(=O)O)CCN(CC(=O)O)CC1)C(=O)N[C@H]1CC(=O)NCCCC[C@@H](C(N)=O)NC(=O)[C@H](Cc2c[nH]c3ccccc23)NC(=O)[C@H](CCCNC(=N)N)NC(=O)[C@@H](Cc2ccccc2)NC(=O)[C@H](Cc2c[nH]cn2)NC1=O [copper-64 labelled] | – | female C57 mouse, B16/F1 melanoma, brain | intravenous, 0.037 MBq, 4 h | 0.07 ± 0.04 %ID/g |
| CCCC[C@@H]1NC(=O)[C@@H](NC(=O)[C@H](CCC(=O)O)NC(=O)CNC(=O)CN2CCN(CC(=O)O)CCN(CC(=O)O)CCN(CC(=O)O)CC2)CCCCNC(=O)C[C@@H](C(N)=O)NC(=O)[C@H](C(C)C)NC(=O)[C@@H]2CCCN2C(=O)[C@H](CCCNC(=N)N)NC(=O)CNC(=O)[C@H](Cc2c[nH]c3ccccc23)NC(=O)[C@H](CCCNC(=N)N)NC(=O)[C@@H](Cc2ccccc2)NC(=O)[C@H](Cc2c[nH]cn2)NC(=O)[C@H](CCC(=O)O)NC1=O [gallium-67 labelled] | – | C57 mice with B16/F1 melanoma, heart | intravenous, 24 h | 0.14 ± 0.13 %ID/g |
| NC12CNCCNCC(NCc3ccc(CNC(=O)CCCC(=O)NCc4ccc(-c5nncnn5)cc4)cc3)(CNCCNC1)CNCCNC2.[64Cu+2] | – | athymic nude mice, SW1222 xenograft, small intestine with contents | 4 h, pretargeting with huA33-TCO, 24 h interval | 0.62 ± 0.06 %ID/g |
| CC(C)[C@H](NC(=O)[C@@H]1CCCN1C(=O)[C@H](CCCNC(=N)N)NC(=O)[C@H](CS)NC(=O)[C@H](Cc1c[nH]c2ccccc12)NC(=O)[C@H](CCCNC(=N)N)NC(=O)[C@@H](Cc1ccccc1)NC(=O)[C@H](Cc1c[nH]cn1)NC(=O)[C@H](CCC(=O)O)NC(=O)[C@H](CS)NC(=O)[C@H](CS)NC(=O)[C@@H]1CC(=O)N[C@@H](CCCNC(=N)N)C(=O)NCC(=O)N[C@@H](CC(=O)O)C(=O)N[C@H](Cc2ccc(O)cc2)C(=O)N1)C(N)=O [technetium-99m labelled] | – | C57 mouse, female, B16/F1 melanoma, muscle | intravenous, 0.037 MBq, 2 h | 0.2 ± 0.11 %ID/g |
| C[C@H](CN(C)Cc1ccccc1)NC(=O)c1ccc(-c2noc(C(F)(F)[18F])n2)cc1 | PET imaging | female Sprague-Dawley rats, cerebellum | intravenous, 30 min | 1.08 ± 0.25 SUV |
| O=C([O-])CN1CCN(CC(=O)[O-])CCN(CC(=O)[O-])CCN(CC(=O)[O-])CC1.[64Cu+2] | – | healthy athymic nude mice, muscle | intravenous, 4 h | 0.09 %ID/g |
| CCCC[C@H](NC(=O)CNC(=O)CNC(=O)CN1CCN(CC(=O)O)CCN(CC(=O)O)CC1)C(=O)N[C@H]1CC(=O)NCCCC[C@@H](C(N)=O)NC(=O)[C@H](Cc2c[nH]c3ccccc23)NC(=O)[C@H](CCCNC(=N)N)NC(=O)[C@@H](Cc2ccccc2)NC(=O)[C@H](Cc2c[nH]cn2)NC1=O [gallium-67 labelled] | – | female C57 mice, B16/F1 melanoma, liver | intravenous, 0.037 MBq, 0.5 h | 1.28 ± 0.14 %ID/g |
| O=C([O-])CN1CCN(CC(=O)[O-])CCN(CC(=O)NCCc2ccc3c(c2)C2C=CCC2C(c2cc4c(cc2Br)OCO4)N3)CCN(CC(=O)[O-])CC1.[111In+3] (stereo not drawn) | – | mouse, Hec50 endometrial tumour, brain | 0.5 h post injection | 0.33 ± 0.01 %ID/g |
| CN(C)c1ccc(-c2nc3ccc(OCCCCCN4CCN5CCN(CC4)CC(=O)[O][Al]([18F])[O]C(=O)C5)cc3s2)cc1 | – | ICR mouse, brain | intravenous, 10 min | 0.16 ± 0.05 %ID/g |

Some of these lines once more:
| SMILES | assay | system | setting | tissue uptake |
| --- | --- | --- | --- | --- |
| O=C([O-])CN1CCN(CC(=O)[O-])CCN(CC(=O)NCCc2ccc3c(c2)C2C=CCC2C(c2cc4c(cc2Br)OCO4)N3)CCN(CC(=O)[O-])CC1.[111In+3] (stereo not drawn) | – | mouse, Hec50 endometrial tumour, brain | 0.5 h post injection | 0.33 ± 0.01 %ID/g |
